Published values collected from several papers.
Parts stem from different laboratories: compare values within a part only.
Chain of UniProt O14757 (whole entry, looked up): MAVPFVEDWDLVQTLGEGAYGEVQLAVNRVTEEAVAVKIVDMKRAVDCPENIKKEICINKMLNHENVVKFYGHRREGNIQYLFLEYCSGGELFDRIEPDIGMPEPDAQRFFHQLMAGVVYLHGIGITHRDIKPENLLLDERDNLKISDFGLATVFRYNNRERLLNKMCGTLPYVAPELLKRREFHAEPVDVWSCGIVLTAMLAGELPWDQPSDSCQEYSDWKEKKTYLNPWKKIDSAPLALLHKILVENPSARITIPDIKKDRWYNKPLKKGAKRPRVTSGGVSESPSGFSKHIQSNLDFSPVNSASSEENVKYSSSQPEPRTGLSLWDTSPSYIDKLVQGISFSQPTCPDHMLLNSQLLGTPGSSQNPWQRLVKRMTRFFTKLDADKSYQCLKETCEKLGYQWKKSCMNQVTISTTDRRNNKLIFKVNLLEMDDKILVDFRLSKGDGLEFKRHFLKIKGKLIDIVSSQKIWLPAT
Chain of UniProt P10721 (whole entry, looked up): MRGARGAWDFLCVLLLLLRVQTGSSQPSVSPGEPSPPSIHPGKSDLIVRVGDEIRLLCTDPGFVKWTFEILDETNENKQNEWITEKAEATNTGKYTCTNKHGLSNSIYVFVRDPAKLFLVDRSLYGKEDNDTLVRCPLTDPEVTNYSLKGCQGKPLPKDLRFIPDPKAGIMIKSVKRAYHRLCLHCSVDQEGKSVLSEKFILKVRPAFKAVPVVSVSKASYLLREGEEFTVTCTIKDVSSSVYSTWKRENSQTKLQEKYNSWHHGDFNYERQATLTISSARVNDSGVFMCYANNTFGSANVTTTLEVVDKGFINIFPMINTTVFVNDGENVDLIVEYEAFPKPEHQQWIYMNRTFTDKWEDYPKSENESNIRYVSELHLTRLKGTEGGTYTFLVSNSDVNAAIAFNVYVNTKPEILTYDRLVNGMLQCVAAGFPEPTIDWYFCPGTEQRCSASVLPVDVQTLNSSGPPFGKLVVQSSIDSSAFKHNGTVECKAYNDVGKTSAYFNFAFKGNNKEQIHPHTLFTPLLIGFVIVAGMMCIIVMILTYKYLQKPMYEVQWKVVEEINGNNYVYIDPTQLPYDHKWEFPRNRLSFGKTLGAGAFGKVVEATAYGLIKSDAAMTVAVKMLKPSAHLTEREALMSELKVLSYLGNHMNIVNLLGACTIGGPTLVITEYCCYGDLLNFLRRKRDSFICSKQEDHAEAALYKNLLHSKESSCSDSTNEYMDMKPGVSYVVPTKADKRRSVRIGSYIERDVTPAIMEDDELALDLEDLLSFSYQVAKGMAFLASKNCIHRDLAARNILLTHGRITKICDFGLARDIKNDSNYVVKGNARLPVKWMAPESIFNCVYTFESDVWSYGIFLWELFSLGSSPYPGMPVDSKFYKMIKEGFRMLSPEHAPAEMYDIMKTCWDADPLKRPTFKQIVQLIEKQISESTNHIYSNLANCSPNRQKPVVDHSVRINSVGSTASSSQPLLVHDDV
Chain of UniProt Q9Y2H1 (whole entry, looked up): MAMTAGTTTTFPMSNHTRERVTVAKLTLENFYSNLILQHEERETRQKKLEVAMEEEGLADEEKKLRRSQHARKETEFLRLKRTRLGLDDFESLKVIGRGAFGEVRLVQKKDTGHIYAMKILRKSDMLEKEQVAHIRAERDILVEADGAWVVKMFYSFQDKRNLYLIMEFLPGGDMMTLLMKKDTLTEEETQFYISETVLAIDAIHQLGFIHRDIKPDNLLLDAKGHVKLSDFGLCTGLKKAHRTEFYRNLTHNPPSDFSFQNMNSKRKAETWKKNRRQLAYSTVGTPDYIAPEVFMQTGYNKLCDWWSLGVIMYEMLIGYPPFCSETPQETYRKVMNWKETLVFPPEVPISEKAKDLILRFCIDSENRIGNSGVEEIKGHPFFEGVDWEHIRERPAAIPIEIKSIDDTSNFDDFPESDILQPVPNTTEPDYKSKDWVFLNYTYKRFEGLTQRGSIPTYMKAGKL
Chain of UniProt P68400 (whole entry, looked up): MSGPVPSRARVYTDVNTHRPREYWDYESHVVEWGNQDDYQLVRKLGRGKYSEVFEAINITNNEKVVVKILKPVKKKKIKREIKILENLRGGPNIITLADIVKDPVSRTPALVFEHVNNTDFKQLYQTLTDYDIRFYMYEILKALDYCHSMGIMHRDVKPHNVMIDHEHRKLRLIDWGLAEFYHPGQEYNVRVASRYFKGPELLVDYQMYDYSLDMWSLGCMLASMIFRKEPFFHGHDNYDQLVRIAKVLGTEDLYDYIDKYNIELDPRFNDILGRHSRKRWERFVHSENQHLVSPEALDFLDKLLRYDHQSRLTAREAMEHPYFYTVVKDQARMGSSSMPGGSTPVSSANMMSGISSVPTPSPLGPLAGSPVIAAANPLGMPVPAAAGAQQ
Chain of UniProt Q14004 (whole entry, looked up): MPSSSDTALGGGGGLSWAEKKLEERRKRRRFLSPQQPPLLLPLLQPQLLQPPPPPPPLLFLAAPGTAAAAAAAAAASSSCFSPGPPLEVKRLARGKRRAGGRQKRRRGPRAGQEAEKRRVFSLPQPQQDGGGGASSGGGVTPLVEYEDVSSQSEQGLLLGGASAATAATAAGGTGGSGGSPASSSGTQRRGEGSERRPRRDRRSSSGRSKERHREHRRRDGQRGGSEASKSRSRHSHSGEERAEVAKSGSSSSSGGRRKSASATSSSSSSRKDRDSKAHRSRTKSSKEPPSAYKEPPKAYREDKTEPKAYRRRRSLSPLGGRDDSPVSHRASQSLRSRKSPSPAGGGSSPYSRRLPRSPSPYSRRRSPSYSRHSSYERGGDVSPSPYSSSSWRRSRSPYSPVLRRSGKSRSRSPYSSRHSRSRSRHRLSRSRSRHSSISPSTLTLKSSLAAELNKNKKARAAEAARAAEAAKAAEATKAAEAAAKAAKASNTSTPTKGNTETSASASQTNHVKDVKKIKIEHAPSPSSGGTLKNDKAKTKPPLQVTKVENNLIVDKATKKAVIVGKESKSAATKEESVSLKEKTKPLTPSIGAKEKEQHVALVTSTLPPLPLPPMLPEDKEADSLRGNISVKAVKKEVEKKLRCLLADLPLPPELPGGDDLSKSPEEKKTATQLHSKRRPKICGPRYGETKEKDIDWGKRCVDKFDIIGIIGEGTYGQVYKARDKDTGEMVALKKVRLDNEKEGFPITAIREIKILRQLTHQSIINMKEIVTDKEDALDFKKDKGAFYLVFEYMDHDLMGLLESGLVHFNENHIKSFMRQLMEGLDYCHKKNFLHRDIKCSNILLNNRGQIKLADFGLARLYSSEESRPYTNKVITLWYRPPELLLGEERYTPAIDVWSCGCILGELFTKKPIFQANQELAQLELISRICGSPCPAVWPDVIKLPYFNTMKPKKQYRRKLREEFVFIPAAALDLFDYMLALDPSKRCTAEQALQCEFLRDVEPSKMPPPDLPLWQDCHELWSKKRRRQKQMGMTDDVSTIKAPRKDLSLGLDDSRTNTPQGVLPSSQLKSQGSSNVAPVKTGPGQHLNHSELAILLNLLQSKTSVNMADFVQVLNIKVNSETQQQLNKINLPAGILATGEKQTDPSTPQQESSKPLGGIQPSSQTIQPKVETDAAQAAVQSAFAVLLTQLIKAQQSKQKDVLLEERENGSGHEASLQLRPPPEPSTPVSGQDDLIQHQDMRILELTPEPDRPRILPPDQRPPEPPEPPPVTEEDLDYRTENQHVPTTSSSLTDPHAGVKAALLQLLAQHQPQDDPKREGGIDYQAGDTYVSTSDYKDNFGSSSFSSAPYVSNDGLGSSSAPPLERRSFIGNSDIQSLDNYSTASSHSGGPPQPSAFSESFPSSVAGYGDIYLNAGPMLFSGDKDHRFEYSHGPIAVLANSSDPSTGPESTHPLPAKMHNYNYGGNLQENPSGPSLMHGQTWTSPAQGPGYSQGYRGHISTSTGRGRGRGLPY
Chain of UniProt Q12851 (whole entry, looked up): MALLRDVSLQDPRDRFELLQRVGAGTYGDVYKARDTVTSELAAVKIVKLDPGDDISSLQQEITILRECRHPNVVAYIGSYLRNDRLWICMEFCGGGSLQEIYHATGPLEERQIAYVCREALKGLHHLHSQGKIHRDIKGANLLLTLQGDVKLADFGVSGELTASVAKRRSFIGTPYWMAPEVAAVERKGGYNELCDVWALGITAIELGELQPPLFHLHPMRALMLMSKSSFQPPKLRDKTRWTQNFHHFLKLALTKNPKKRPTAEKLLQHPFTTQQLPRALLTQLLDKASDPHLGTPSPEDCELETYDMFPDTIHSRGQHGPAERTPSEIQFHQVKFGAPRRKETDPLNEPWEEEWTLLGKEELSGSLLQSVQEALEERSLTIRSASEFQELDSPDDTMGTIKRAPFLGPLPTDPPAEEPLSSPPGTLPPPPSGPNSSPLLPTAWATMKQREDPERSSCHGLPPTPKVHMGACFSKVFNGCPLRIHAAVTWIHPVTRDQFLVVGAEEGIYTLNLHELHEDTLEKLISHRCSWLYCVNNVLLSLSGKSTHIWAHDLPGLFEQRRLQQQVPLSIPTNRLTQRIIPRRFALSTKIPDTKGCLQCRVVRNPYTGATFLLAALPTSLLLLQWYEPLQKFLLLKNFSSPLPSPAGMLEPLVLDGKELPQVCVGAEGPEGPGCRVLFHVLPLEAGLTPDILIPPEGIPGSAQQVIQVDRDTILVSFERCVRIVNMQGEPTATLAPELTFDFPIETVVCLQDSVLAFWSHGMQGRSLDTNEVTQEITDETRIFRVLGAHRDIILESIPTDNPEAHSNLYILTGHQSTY
Chain of UniProt P48729 (whole entry, looked up): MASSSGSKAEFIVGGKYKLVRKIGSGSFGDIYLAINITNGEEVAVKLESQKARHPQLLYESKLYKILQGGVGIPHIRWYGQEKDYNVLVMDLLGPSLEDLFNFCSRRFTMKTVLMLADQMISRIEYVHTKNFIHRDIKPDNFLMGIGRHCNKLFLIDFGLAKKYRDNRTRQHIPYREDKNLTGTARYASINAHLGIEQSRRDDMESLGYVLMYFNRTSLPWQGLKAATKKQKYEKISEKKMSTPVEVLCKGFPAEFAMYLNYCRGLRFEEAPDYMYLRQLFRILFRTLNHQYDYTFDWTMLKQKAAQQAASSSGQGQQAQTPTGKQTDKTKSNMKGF

Series 1
SMILES: CNCc1ccccc1-c1csc([C@H](C)Nc2nc(C)nc3cc(OC)c(OC)cc23)c1
Concentration: 1 µM
Measurement: remaining binding
target = Serine/threonine-protein kinase Chk1 (CHEK1, Homo sapiens, UniProt O14757); test = cell-free assay, competition with immobilised ligand; result = 100%
target = Cyclin-dependent kinase 19 (CDK19, Homo sapiens, UniProt Q9BWU1); test = competition binding; result = 88%
target = Platelet-derived growth factor receptor beta (PDGFRB, Homo sapiens, UniProt P09619); test = cell-free assay, competition with immobilised ligand; result = 99%
target = Dual specificity mitogen-activated protein kinase kinase 7 (MAP2K7, Homo sapiens, UniProt O14733); test = cell-free assay, competition with immobilised ligand; result = 81%
target = Tyrosine-protein kinase SYK (SYK, Homo sapiens, UniProt P43405); test = cell-free assay, competition with immobilised ligand; result = 100%
target = Mast/stem cell growth factor receptor Kit (KIT, Homo sapiens, UniProt P10721); test = cell-free assay, competition with immobilised ligand; result = 100%
target = Transient receptor potential cation channel subfamily M member 6 (TRPM6, Homo sapiens, UniProt Q9BX84); test = cell-free assay, competition with immobilised ligand; result = 100%
target = Serine/threonine-protein kinase 35 (STK35, Homo sapiens, UniProt Q8TDR2); test = cell-free assay, competition with immobilised ligand; result = 100%
target = Casein kinase I isoform gamma-1 (CSNK1G1, Homo sapiens, UniProt Q9HCP0); test = cell-free assay, competition with immobilised ligand; result = 92%
target = Proto-oncogene tyrosine-protein kinase receptor Ret (RET, Homo sapiens, UniProt P07949); test = cell-free assay, competition with immobilised ligand; result = 100%
target = Mitogen-activated protein kinase kinase kinase 13 (MAP3K13, Homo sapiens, UniProt O43283); test = cell-free assay, competition with immobilised ligand; result = 91%
target = Fibroblast growth factor receptor 3 (FGFR3, Homo sapiens, UniProt P22607, G697C); test = cell-free assay, competition with immobilised ligand; result = 100%
target = Ribosomal protein S6 kinase alpha-2, C-terminal kinase domain (RPS6KA2, Homo sapiens, UniProt Q15349); test = cell-free assay, competition with immobilised ligand; result = 100%
target = Cyclin-dependent kinase 13 (CDK13, Homo sapiens, UniProt Q14004); test = cell-free assay, competition with immobilised ligand; result = 93%
target = Inhibitor of nuclear factor kappa-B kinase subunit epsilon (IKBKE, Homo sapiens, UniProt Q14164); test = cell-free assay, competition with immobilised ligand; result = 85%
target = Tyrosine-protein kinase ABL1, phosphorylated (ABL1, Homo sapiens, UniProt P00519, M351T); test = cell-free assay, competition with immobilised ligand; result = 85%
target = Aurora kinase A (AURKA, Homo sapiens, UniProt O14965); test = cell-free assay, competition with immobilised ligand; result = 73%
target = Tyrosine-protein kinase ABL1, phosphorylated (ABL1, Homo sapiens, UniProt P00519, E255K); test = binding, competition with immobilised ligand; result = 81%
target = Mitotic checkpoint serine/threonine-protein kinase BUB1 (BUB1, Homo sapiens, UniProt O43683); test = cell-free assay, competition with immobilised ligand; result = 100%
target = ALK tyrosine kinase receptor (ALK, Homo sapiens, UniProt Q9UM73); test = cell-free assay, competition with immobilised ligand; result = 73%
target = Receptor-type tyrosine-protein kinase FLT3 (FLT3, Homo sapiens, UniProt P36888, D835Y); test = cell-free assay, competition with immobilised ligand; result = 100%

Series 2
Structure (SMILES): O=C(Nc1ccccc1)Nc1cccc(Oc2ccc3nccn3n2)c1
Concentration: 1 µM
Measurement: remaining binding
target = Tyrosine-protein kinase FRK (FRK, Homo sapiens, UniProt P42685); test = competitive binding panel; scale = relative to: vehicle; result = 100%
target = Dual specificity mitogen-activated protein kinase kinase 5 (MAP2K5, Homo sapiens, UniProt Q13163); test = competitive binding panel, refers to: MEK5; scale = relative to: vehicle; result = 63%
target = Dual specificity tyrosine-phosphorylation-regulated kinase 2 (DYRK2, Homo sapiens, UniProt Q92630); test = competitive binding panel; scale = relative to: vehicle; result = 100%
target = MAP kinase-interacting serine/threonine-protein kinase 1 (MKNK1, Homo sapiens, UniProt Q9BUB5); test = competitive binding panel; scale = relative to: vehicle; result = 90%
target = Serine/threonine-protein kinase PAK 2 (PAK2, Homo sapiens, UniProt Q13177); test = competitive binding panel; scale = relative to: vehicle; result = 100%
target = Serine/threonine-protein kinase 17A (STK17A, Homo sapiens, UniProt Q9UEE5); test = competitive binding panel, refers to: DRAK1; scale = relative to: vehicle; result = 100%
target = Mitogen-activated protein kinase kinase kinase 5 (MAP3K5, Homo sapiens, UniProt Q99683); test = competitive binding panel, refers to: ASK1; scale = relative to: vehicle; result = 100%
target = Mitogen-activated protein kinase 10 (MAPK10, Homo sapiens, UniProt P53779); test = competitive binding; conditions = JNK3; result = 100%
target = Myotonin-protein kinase (DMPK, Homo sapiens, UniProt Q09013); test = competitive binding panel; scale = relative to: vehicle; result = 96%
target = Serine/threonine-protein kinase Nek10 (NEK10, Homo sapiens, UniProt Q6ZWH5); test = competitive binding panel; scale = relative to: vehicle; result = 100%
target = Cyclin-dependent kinase-like 5 (CDKL5, Homo sapiens, UniProt O76039); test = competitive binding panel; scale = relative to: vehicle; result = 98%
target = Interleukin-1 receptor-associated kinase 1 (IRAK1, Homo sapiens, UniProt P51617); test = competitive binding panel; scale = relative to: vehicle; result = 91%
target = Inhibitor of nuclear factor kappa-B kinase subunit alpha (CHUK, Homo sapiens, UniProt O15111); test = competitive binding; conditions = IKK-alpha; result = 93%
target = Peripheral plasma membrane protein CASK (CASK, Homo sapiens, UniProt O14936); test = competitive binding panel; scale = relative to: vehicle; result = 84%
target = Serine/threonine-protein kinase 38-like (STK38L, Homo sapiens, UniProt Q9Y2H1); test = competitive binding panel, refers to: NDR2; scale = relative to: vehicle; result = 100%
target = Serine/threonine-protein kinase 38 (STK38, Homo sapiens, UniProt Q15208); test = competitive binding panel, refers to: NDR1; scale = relative to: vehicle; result = 96%
target = RAC-alpha serine/threonine-protein kinase (AKT1, Homo sapiens, UniProt P31749); test = competitive binding panel; scale = relative to: vehicle; result = 68%
target = Serine/threonine-protein kinase 33 (STK33, Homo sapiens, UniProt Q9BYT3); test = competitive binding panel; scale = relative to: vehicle; result = 99%
target = Serine/threonine-protein kinase DCLK1 (DCLK1, Homo sapiens, UniProt O15075); test = competitive binding panel, refers to: DCAMKL1; scale = relative to: vehicle; result = 100%

Series 3
Compound: CC(C)n1cnc2c(Nc3cccc(Cl)c3)nc(NCCO)nc21
Read-out: enzyme activity
Action: inhibitor
Concentration: 0.5 µM
Relative to: control
Measurement: remaining activity
target = Mitogen-activated protein kinase kinase kinase kinase 2 (MAP4K2, Homo sapiens, UniProt Q12851); result = 87.6%
target = Tyrosine-protein kinase Lyn (LYN, Homo sapiens, UniProt P07948); result = 80.2%
target = MAP kinase-interacting serine/threonine-protein kinase 2 (MKNK2, Homo sapiens, UniProt Q9HBH9); result = 94.8%
target = Casein kinase I isoform alpha (CSNK1A1, Homo sapiens, UniProt P48729); result = 62.4%
target = Serine/threonine-protein kinase Chk1 (CHEK1, Homo sapiens, UniProt O14757); result = 87.1%
target = Casein kinase II subunit alpha (CSNK2A1, Homo sapiens, UniProt P68400); result = 83.8%
target = Interleukin-1 receptor-associated kinase 4 (IRAK4, Homo sapiens, UniProt Q9NWZ3); result = 95.2%
target = Dual specificity mitogen-activated protein kinase kinase 6 (MAP2K6, Homo sapiens, UniProt P52564); result = 88.9%
target = Leucine-rich repeat serine/threonine-protein kinase 2 (LRRK2, Homo sapiens, UniProt Q5S007); result = 72.8%
target = Mitogen-activated protein kinase kinase kinase 10 (MAP3K10, Homo sapiens, UniProt Q02779); result = 90.3%
target = Protein kinase C delta type (PRKCD, Homo sapiens, UniProt Q05655); result = 89.1%
target = Serine/threonine-protein kinase Nek4 (NEK4, Homo sapiens, UniProt P51957); result = 89.1%
target = Mitogen-activated protein kinase 13 (MAPK13, Homo sapiens, UniProt O15264); result = 99%
target = Cyclin-dependent kinase 9, with cyclin T1 (CDK9, Homo sapiens, UniProt P50750); result = 87.4%
target = Serine/threonine-protein kinase WNK2 (WNK2, Homo sapiens, UniProt Q9Y3S1); result = 93.6%
target = Serine/threonine-protein kinase PLK2 (PLK2, Homo sapiens, UniProt Q9NYY3); result = 95.9%
target = Tyrosine-protein kinase BTK (BTK, Homo sapiens, UniProt Q06187); result = 86.3%
target = Ephrin type-A receptor 5 (EPHA5, Homo sapiens, UniProt P54756); result = 91.7%
target = RAC-gamma serine/threonine-protein kinase (AKT3, Homo sapiens, UniProt Q9Y243); result = 99.9%
target = Mast/stem cell growth factor receptor Kit (KIT, Homo sapiens, UniProt P10721); result = 76.3%
target = Protein kinase C iota type (PRKCI, Homo sapiens, UniProt P41743); result = 101%
target = Mitogen-activated protein kinase 12 (MAPK12, Homo sapiens, UniProt P53778); result = 102%

Series 4
Species: mouse
Matrix: microsomes or S9
Concentration: 2 µM
Time: 0.5 h
Measurement: remaining compound
SMILES = O=C(CCn1c2c(c3ccccc31)CCn1c-2nc2ccccc2c1=O)N1CCN(Cc2cccnc2)CC1; result = 4%
SMILES = COC(=O)C1(C(=O)OC)C[C@@H](c2ccccc2)c2ccc(N(C)C)cc2[C@@H]1CC(=O)C(C)(C)C; result = 0.0827%
SMILES = CN(C)S(=O)(=O)CCc1cn([C@@H]2CCc3c(F)cccc32)nn1; result = 45.1%
SMILES = CNC(=O)CCC(=O)C1=C(NC)CC(C)(C)CC1=O; result = 99.5%
SMILES = CNC(=O)CN(c1ccc(C(C)C)cc1)S(C)(=O)=O; result = 74.1%
SMILES = CC(C)C[C@@H]1N/C(=N/c2ccccc2)N(c2ccccc2)C1=O; result = 48.8%
SMILES = COc1ccc(CCN[C@H]2CS(=O)(=O)C[C@@H]2S(=O)(=O)c2ccc(F)c(C)c2)cc1OC; result = 4.83%
SMILES = CN(CCOc1ccc(C2=NN(c3ccccc3)C(=O)C2)cc1)c1nc2ccccc2o1; result = 11.5%
SMILES = CCOC(=O)c1ccc(Nc2nc3ccccc3n3cnnc23)cc1; result = 20%
SMILES = CCn1c(=O)n(CC)c2cc(NS(C)(=O)=O)c(Br)cc21; result = 98.1%

A few entries again (series 3):
target = Serine/threonine-protein kinase Chk1 (CHEK1, Homo sapiens, UniProt O14757); result = 87.1%
target = Casein kinase II subunit alpha (CSNK2A1, Homo sapiens, UniProt P68400); result = 83.8%
target = Interleukin-1 receptor-associated kinase 4 (IRAK4, Homo sapiens, UniProt Q9NWZ3); result = 95.2%
target = Dual specificity mitogen-activated protein kinase kinase 6 (MAP2K6, Homo sapiens, UniProt P52564); result = 88.9%
target = Leucine-rich repeat serine/threonine-protein kinase 2 (LRRK2, Homo sapiens, UniProt Q5S007); result = 72.8%
target = Mitogen-activated protein kinase kinase kinase 10 (MAP3K10, Homo sapiens, UniProt Q02779); result = 90.3%
target = Protein kinase C delta type (PRKCD, Homo sapiens, UniProt Q05655); result = 89.1%
target = Serine/threonine-protein kinase Nek4 (NEK4, Homo sapiens, UniProt P51957); result = 89.1%
target = Mitogen-activated protein kinase 13 (MAPK13, Homo sapiens, UniProt O15264); result = 99%
target = Cyclin-dependent kinase 9, with cyclin T1 (CDK9, Homo sapiens, UniProt P50750); result = 87.4%
